Values quoted from earlier work as cited in several papers.
Lines come from different studies, so protocols differ. ± marks the error that the study gave.

Nc1c(C(=O)NCc2ccc(F)cc2F)c(=O)n(O)c2ncccc12 — EC50 (HIV-1; viral replication; integrase G118R mutant): 0.016 ± 0.005 µM
Nc1ncnc2c1ncn2C1OC(CSCCC(N)C(=O)O)C(O)C1O (stereo not drawn) — IC50 (SARS-CoV-2 nsp16; enzyme activity, inhibitor; other laboratory data): 2.2 µM
CCOC(=O)COc1nc(SCC(=O)OCC)nc2ccccc12 — inhibition (SARS-CoV-2 RdRp; 10 µM): 58.4%
C[n+]1cn(C2OC(COP(=O)(O)OP(=O)(O)O)C(O)C2O)c2nc(N)[nH]c(=O)c21 (stereo not drawn) — enzyme activity (vaccinia virus D10 MBP fusion; inhibitor; concentration not given, single turnover): inhibited
Cc1cc(C#N)cc(C)c1Oc1nc(NC2CCN(Cc3ccc(S(N)(=O)=O)cc3)CC2)nc2ccsc12 — EC50 (HIV-1; viral cytopathic effect, MTT; MT-4, E138K mutant): 0.0029 µM
CC1=NOC(=O)/C1=C\c1ccc(-c2ccccc2)o1 — IC50 (IspE (Yersinia pestis); enzyme activity, inhibitor): 6 µM
CC1OC(OC2C(CO)OC(OC3CCC4(C)C(CCC5(C)C4CC=C4C6CC(C)(C)CCC6(C(=O)Nc6ccccc6)CCC45C)C3(C)C)C(OC3OC(C)C(O)C(O)C3O)C2O)C(O)C(O)C1O (stereo not drawn) — IC50 (SARS-CoV-2 spike protein): 18.1 µM
O=C1c2ccccc2C(=O)c2oc(-c3ccccc3)nc21 — IC50 (SARS-CoV-2 papain-like protease; enzyme activity, inhibitor; added: Ub-AMC substrate): 0.091 µM
C=CCn1c(CSc2ccccc2[N+](=O)[O-])n[nH]c1=S — IC50 (SARS-CoV nsp13 helicase): 5.3 µM
N#Cc1ccccc1C[C@@H](N)C(=O)N[C@H](Cc1ccc(Cl)cc1Cl)C(=O)N[C@H](CC(=O)O)Cc1ccc(F)cc1 — IC50 (SARS-CoV-2 3CL protease; enzyme activity, inhibitor): 5.7 µM
CC(C)C[C@H](NC(=O)CN)C(=O)N[C@@H](Cc1ccccc1)C(=O)N[C@@H](CC(=O)O)C(=O)O — IC50 (ricin A chain; yeast): 102 µM
Nc1nc2c(ncn2C2OC(COP(=O)(O)OP(=O)(O)O)C(O)C2O)c(=O)[nH]1 (stereo not drawn) — enzyme activity (vaccinia virus D10 MBP fusion; inhibitor; concentration not given, single turnover): no inhibition
CC[C@H](C)[C@@H]1NC(=O)[C@H](CC(=O)O)NC(=O)[C@H]([C@@H](C)O)NC(=O)[C@@H]2CSSC[C@@H]3NC(=O)[C@H](CC(C)C)NC(=O)[C@H](CC(N)=O)NC(=O)[C@H](CC(C)C)NC(=O)[C@H](CCCNC(=N)N)NC(=O)[C@H](Cc4ccc(O)cc4)NC(=O)[C@H](CCCCN)NC(=O)[C@H](CCSC)NC(=O)[C@H](CO)NC(=O)[C@H]([C@@H](C)O)NC(=O)[C@H](CCCNC(=N)N)NC(=O)[C@H](CSSC[C@H](NC(=O)[C@H]([C@@H](C)O)NC(=O)[C@H](CCCCN)NC(=O)[C@H](CCCNC(=N)N)NC3=O)C(=O)NCC(=O)N[C@@H](CO)C(=O)N[C@H](C(=O)O)CSSC[C@H](NC(=O)[C@@H](NC(=O)[C@@H](N)CCCNC(=N)N)[C@@H](C)O)C(=O)N[C@@H](CCCCN)C(=O)N[C@@H](CC(=O)O)C(=O)N[C@@H](CC(C)C)C(=O)N[C@@H]([C@@H](C)CC)C(=O)N3CCC[C@H]3C(=O)N[C@@H](C(C)C)C(=O)N[C@@H](CO)C(=O)N[C@@H](CCC(=O)O)C(=O)N2)NC(=O)[C@H](CCCNC(=N)N)NC1=O — Ki (KcsA-Shaker channel; inhibitor): ~0.001 µM
O=C(/C=C/c1ccc(O)c2oc(-c3ccc(O)c(O)c3)cc12)O[C@H](Cc1ccc(O)c(O)c1)C(=O)O — IC50 (SARS-CoV-2 spike protein; ACE2-expressing HEK293T): 3.85 µM
O=c1cc(-c2ccc(Cl)cc2)nc(SCc2ccc([N+](=O)[O-])cc2)[nH]1 — IC50 (SARS-CoV main protease; enzyme activity, inhibitor): 6.1 µM
O=C1C(=O)N(Cc2cc3ccccc3s2)c2ccc(I)cc21 — IC50 (SARS-CoV main protease): 0.95 µM
Oc1nc(/C=C/c2ccc(Cl)c(Cl)c2)cc(C(F)(F)F)n1 — IC50 (SARS-CoV-2 nsp16; enzyme activity, inhibitor; 2 h): 4 µM
CSCC[C@@H]1NC(=O)CNC(=O)[C@H](CCC(=O)O)NC(=O)[C@@H]2CSSC[C@H](NC(=O)[C@@H](N)Cc3ccc(O)cc3)C(=O)N[C@@H](CCC(N)=O)C(=O)N[C@@H](CCCCN)C(=O)N[C@@H](Cc3c[nH]c4ccccc34)C(=O)N[C@@H](CCSC)C(=O)N[C@@H](Cc3c[nH]c4ccccc34)C(=O)N[C@@H]([C@@H](C)O)C(=O)N[C@H]3CSSC[C@H](NC(=O)[C@H](C(C)C)NC1=O)C(=O)N[C@@H](CCCNC(=N)N)C(=O)N[C@@H](CC(C)C)C(=O)N[C@@H](Cc1c[nH]c4ccccc14)C(=O)N[C@H](C(=O)N[C@@H](CCCCN)C(=O)N[C@@H](CCCCN)C(=O)N[C@@H](CCCCN)C(=O)N[C@@H](CC(C)C)C(=O)N[C@@H](Cc1c[nH]c4ccccc14)C(=O)O)CSSC[C@H](NC(=O)[C@H](CCCCN)NC(=O)[C@H](CCCNC(=N)N)NC(=O)[C@H](CCC(=O)O)NC(=O)[C@H](CO)NC(=O)[C@H](CC(=O)O)NC3=O)C(=O)N2 — IC50 (Nav1.6; sodium current, inhibitor): 0.026 µM
